Experimental data pooled from the literature.
± gives the spread as reported.
NR3C1: Glucocorticoid receptor (NR3C1, Homo sapiens, UniProt P04150)
NMT1: Glycylpeptide N-tetradecanoyltransferase 1 (NMT1, Homo sapiens, UniProt P30419)

The chains behind the UniProt entries cited, without tags or fusion partners. Where a name states a change or a piece, a line headed by the entry shows the natural chain unless it says otherwise. Residues count along the entry.
UniProt P04150, whole entry: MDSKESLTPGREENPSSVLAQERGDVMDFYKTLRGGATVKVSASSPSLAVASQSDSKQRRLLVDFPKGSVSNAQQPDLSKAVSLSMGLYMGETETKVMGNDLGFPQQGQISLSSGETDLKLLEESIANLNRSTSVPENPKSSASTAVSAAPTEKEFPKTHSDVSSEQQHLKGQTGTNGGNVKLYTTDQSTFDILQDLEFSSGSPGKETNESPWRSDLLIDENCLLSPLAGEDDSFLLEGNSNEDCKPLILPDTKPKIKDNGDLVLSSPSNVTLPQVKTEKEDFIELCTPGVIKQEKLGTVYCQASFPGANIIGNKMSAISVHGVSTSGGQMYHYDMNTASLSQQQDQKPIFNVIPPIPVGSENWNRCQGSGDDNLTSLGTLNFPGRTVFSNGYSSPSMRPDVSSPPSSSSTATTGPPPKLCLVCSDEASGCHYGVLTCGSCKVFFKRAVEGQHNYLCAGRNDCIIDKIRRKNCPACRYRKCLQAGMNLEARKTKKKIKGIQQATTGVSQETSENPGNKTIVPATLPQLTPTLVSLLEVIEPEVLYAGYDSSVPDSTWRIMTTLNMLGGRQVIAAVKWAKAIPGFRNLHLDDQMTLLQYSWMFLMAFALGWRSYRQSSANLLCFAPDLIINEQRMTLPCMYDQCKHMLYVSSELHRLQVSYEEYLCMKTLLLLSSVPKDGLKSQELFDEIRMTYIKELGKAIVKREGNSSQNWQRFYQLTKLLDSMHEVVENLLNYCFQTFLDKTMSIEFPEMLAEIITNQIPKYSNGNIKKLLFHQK
UniProt P30419, whole entry: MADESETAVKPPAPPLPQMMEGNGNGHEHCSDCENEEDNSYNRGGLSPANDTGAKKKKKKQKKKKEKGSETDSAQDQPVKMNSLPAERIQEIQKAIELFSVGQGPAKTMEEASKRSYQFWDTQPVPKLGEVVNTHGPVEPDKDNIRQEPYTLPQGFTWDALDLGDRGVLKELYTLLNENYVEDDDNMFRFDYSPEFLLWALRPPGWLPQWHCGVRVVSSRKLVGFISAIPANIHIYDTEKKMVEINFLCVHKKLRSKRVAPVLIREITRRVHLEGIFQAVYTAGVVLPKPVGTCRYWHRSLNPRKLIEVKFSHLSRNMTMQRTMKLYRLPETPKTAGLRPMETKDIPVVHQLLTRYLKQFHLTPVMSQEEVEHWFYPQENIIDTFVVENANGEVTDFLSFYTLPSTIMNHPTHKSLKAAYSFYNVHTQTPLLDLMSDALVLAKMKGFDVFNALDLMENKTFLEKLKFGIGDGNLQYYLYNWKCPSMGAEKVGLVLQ
UniProt P16083, whole entry: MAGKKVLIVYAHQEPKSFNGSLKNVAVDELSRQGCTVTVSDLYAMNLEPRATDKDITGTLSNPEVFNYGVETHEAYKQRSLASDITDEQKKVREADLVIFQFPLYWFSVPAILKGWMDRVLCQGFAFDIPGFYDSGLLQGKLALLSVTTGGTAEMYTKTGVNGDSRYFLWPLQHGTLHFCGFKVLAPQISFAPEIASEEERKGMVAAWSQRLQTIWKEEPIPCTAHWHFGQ
UniProt Q13526, whole entry: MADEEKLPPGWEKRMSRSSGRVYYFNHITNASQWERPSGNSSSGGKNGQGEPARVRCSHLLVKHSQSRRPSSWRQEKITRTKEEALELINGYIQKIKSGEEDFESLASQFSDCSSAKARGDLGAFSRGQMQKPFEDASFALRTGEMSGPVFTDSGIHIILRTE
UniProt P41148, 22-804 limits assumed: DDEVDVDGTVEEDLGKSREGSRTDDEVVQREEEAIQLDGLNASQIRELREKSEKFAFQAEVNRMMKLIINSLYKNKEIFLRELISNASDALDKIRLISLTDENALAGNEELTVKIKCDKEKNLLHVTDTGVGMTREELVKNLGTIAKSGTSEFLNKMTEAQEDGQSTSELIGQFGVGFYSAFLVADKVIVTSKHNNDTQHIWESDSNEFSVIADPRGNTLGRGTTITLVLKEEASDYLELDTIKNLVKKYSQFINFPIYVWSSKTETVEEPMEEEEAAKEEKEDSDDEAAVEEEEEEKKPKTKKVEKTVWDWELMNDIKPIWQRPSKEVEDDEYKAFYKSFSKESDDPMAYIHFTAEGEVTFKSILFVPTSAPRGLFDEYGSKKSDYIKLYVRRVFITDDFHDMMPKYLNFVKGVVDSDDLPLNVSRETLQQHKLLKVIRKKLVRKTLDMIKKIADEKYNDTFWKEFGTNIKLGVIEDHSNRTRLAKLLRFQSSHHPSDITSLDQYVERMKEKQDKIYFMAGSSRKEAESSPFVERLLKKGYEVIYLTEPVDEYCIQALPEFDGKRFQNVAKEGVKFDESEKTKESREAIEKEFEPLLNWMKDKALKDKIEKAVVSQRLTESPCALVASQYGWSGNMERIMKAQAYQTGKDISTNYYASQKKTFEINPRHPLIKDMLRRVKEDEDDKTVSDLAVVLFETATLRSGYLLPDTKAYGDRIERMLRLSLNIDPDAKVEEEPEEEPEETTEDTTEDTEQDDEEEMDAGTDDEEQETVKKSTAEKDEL
UniProt P49116, whole entry, looked up: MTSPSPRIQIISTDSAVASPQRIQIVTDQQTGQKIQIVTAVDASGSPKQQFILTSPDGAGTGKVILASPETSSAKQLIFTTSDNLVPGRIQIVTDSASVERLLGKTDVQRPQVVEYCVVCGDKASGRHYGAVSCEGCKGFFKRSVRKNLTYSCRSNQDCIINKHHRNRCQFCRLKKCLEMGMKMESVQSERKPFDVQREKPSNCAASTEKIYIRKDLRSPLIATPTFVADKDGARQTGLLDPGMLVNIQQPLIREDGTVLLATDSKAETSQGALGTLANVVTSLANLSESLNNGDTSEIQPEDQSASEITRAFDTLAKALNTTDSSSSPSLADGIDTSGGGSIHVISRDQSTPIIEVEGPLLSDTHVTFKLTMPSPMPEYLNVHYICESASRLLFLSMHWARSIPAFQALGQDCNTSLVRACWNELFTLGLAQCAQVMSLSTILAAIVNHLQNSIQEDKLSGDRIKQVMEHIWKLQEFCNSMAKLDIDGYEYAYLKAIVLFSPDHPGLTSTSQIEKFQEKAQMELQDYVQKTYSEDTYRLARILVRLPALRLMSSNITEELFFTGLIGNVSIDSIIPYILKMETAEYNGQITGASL
UniProt P07948, whole entry: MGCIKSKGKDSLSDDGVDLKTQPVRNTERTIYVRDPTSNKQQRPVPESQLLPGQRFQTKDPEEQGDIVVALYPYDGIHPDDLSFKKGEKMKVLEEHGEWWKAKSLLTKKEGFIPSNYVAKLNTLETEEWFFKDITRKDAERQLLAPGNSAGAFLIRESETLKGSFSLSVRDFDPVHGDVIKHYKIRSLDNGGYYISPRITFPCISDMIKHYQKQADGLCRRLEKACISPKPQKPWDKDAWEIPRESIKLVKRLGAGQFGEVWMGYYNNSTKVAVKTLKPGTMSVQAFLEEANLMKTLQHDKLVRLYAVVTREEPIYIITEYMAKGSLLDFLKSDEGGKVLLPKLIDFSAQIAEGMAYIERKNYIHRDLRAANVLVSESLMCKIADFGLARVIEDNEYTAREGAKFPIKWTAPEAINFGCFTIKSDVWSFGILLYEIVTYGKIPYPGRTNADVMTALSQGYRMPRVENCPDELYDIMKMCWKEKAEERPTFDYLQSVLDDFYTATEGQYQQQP
UniProt Q15256, 22-657 limits assumed: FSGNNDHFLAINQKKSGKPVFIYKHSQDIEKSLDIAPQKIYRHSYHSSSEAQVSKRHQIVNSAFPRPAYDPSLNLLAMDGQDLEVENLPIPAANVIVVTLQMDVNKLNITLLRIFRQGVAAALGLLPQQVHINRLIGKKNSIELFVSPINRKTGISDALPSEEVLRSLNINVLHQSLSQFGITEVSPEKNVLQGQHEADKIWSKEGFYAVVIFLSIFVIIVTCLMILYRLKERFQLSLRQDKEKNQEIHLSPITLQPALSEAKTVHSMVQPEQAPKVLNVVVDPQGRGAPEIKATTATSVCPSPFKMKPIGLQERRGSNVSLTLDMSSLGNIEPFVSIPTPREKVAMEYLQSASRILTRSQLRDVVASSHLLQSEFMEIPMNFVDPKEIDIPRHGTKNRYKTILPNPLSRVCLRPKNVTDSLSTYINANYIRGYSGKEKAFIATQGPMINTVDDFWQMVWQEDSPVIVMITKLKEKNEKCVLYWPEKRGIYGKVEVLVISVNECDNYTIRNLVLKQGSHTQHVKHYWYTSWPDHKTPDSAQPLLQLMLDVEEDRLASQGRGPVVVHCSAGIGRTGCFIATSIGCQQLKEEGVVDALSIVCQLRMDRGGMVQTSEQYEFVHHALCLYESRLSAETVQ
UniProt P97823, whole entry: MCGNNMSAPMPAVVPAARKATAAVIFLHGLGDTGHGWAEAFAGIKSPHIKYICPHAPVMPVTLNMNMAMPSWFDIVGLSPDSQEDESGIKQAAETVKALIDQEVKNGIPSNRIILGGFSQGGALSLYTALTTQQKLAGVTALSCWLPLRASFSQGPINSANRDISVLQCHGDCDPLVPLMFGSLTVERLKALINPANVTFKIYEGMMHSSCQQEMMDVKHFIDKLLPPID
UniProt P21918, whole entry: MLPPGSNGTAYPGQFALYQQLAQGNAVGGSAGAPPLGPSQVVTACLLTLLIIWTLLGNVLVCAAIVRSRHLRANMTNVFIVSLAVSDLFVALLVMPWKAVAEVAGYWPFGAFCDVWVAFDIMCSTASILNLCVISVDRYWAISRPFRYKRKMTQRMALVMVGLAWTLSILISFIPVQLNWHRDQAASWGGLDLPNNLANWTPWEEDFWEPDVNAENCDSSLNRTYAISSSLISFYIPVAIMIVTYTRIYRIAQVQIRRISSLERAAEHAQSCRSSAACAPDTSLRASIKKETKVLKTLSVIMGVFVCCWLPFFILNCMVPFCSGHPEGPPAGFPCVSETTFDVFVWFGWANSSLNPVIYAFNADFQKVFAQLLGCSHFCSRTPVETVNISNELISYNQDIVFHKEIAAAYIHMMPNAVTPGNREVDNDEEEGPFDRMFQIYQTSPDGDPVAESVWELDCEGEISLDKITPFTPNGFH
UniProt O00255, whole entry Y323K: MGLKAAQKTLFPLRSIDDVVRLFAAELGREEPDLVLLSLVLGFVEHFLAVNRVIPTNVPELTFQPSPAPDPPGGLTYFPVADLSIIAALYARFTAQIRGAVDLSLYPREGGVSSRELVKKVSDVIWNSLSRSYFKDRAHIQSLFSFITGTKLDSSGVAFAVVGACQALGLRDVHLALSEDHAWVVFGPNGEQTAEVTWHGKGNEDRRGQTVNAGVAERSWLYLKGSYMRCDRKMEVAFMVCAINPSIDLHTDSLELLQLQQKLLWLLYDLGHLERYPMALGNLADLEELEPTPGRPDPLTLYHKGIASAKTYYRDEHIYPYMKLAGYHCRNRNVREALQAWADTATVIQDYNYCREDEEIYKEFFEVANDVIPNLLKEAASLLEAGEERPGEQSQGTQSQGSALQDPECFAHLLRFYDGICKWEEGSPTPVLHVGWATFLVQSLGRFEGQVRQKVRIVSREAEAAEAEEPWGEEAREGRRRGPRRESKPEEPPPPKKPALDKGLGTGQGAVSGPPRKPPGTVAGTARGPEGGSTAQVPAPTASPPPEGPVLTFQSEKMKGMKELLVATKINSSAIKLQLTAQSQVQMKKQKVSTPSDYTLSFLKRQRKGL
UniProt O96017, whole entry: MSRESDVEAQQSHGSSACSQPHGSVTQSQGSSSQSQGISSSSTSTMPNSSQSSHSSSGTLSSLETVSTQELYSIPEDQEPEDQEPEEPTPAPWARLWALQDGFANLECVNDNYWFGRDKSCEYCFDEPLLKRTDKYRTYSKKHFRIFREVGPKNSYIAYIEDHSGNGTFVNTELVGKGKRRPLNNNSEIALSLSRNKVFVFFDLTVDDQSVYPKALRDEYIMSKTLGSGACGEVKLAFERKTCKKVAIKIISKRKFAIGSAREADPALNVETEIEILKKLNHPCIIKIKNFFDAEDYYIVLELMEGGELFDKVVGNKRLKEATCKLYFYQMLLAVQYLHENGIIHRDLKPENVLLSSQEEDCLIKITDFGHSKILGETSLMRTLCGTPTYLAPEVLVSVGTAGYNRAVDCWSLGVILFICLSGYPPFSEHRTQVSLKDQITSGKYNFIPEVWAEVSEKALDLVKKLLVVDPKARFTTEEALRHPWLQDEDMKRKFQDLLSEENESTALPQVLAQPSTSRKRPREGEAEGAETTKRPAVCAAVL
UniProt O00141, whole entry: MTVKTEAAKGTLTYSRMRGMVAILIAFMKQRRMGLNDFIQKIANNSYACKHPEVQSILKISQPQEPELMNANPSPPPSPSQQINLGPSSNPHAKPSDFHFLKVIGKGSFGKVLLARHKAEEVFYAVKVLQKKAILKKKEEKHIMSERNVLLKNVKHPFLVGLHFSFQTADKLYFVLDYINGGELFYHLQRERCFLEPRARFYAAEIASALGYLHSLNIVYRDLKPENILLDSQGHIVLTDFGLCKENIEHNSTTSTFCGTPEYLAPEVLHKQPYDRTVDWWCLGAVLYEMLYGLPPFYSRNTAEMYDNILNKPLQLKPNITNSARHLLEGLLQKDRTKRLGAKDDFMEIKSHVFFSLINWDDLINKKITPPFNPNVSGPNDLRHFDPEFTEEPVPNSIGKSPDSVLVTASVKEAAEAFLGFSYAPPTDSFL

c1ccc2[nH]c3c(N=NC4=NCCN4)c4ccccc4c-3nc2c1  binding free energy (NQO2 (Homo sapiens, UniProt P16083); from IC50 by Cheng-Prusoff): -8.4 kcal/mol
O=C(CCl)N[C@@H](Cc1ccccc1)C(=O)N1CCCC[C@H]1C(=O)NCCc1c[nH]c2ccc(F)cc12  ΔTm (PIN1 (Homo sapiens, UniProt Q13526); thermal shift; second of two transitions): -14.3 ± 0.28 °C
O=C(Nc1cccnn1)N1CC(Oc2ccc(-c3ccccc3F)cn2)C1  terminal half-life (healthy humans; oral, 50 to 500 mg/day, day 7, repeated daily dosing, range of means): 9.6 to 18.3 h
CC1=Cc2ccccc2C12CCN(C1Cc3ccccc3CC1O)CC2 (single isomer, unassigned)  selectivity ratio (Vesicular acetylcholine transporter (Rattus norvegicus, UniProt Q62666); relative to: Ki sigma2 (rat liver) over Ki VAChT): 290
Nc1c(C(=O)Nc2c(F)cc(F)cc2Br)sc2nc3c(cc12)CCC3  ROS level (H1299; DCFH-DA; 10 µM, 12 h): increased
COC(=O)c1c(O)cc(O)c(Cl)c1CCc1ccc(O)cc1Cc1ccccc1  selectivity ratio (Endoplasmin (HSP90B1, Canis lupus familiaris, UniProt P41148); fluorescence polarization; added: FITC-geldanamycin tracer; relative to: Grp94 over Hsp90α): 3 fold
C[C@H]1C[C@H]2[C@H]3CCC4=CC(=O)C=C[C@@]4(C)[C@]3(F)[C@H](O)C[C@]2(C)[C@@]1(O)C(=O)COP(=O)(O)O  Hill slope (NR3C1; nuclear translocation, agonist, enzyme fragment complementation): 1.3
CC[C@H](C)[C@H]1O[C@]2(CC[C@@H]1C)C[C@@H]1C[C@@H](C/C=C(\C)[C@@H](O[C@H]3C[C@H](OC)[C@@H](O[C@H]4C[C@H](OC)[C@@H](O)[C@H](C)O4)[C@H](C)O3)[C@@H](C)/C=C/C=C3\CO[C@@H]4[C@H](O)C(C)=C[C@@H](C(=O)O1)[C@]34O)O2  koff (Nuclear receptor subfamily 2 group C member 2 (Homo sapiens, UniProt P49116); SPR imaging; immobilized compound microarray; added: TR4-LBD 600 nM analyte): 8.29e-06 s⁻¹
O=C1CCC(N2C(=O)c3cccc(NCCOCCOCCOCCN4CCN(c5ccc(-c6ccc7c(c6)C(=O)N(C(C(=O)Nc6nccs6)c6ccccc6)C7)cn5)CC4)c3C2=O)C(=O)N1 (stereo not drawn)  degradation (EGFR (Homo sapiens, UniProt P00533, C797S/L858R/T790M); degrader, Western blot; Ba/F3 EGFR L858R/T790M/C797S; 0.1 µM, 24 h): 74%
CC(C)C[C@H](NC(=O)[C@H](Cc1c[nH]cn1)NC(=O)[C@H](C)NC(=O)CN)C(=O)N[C@H](C(=O)N[C@@H](CCCNC(=N)N)C(=O)N[C@@H](CCCNC(=N)N)C(=O)N[C@@H](Cc1ccc(O)cc1)C(=O)O)C(C)C  Km (NMT1; substrate): 16.4 µM
CCN1CCN(Cc2ccc(NC(=O)c3ccc(C)c(Oc4ncnc5cc(OC)c(OC)cc45)c3)cc2C(F)(F)F)CC1  residual probe binding (LYN (Homo sapiens, UniProt P07948); KINOMEscan competition binding; 1.0 µM): 1%
Cc1cc(C)c2nc3s/c(=C\c4ccc(-c5ccccc5C(=O)O)o4)c(=O)n3c2c1  IC50 (PTPRR (Homo sapiens, UniProt Q15256); phosphatase activity, inhibitor; added: OMFP): 20 µM
CC(C)C[C@H](NC(=O)[C@H](C)NC(=O)[C@H](CO)NC(=O)[C@H](CC(N)=O)NC(=O)[C@H](CCC(=O)O)NC(=O)[C@H](CO)NC(=O)CN)C(=O)N[C@@H](CCCCN)C(=O)O  Km (NMT1; substrate): 0.8 µM
O=C(Nc1ccc(Cl)cc1)C(NS(=O)(=O)c1cccs1)c1ccccc1 (single isomer, unassigned)  activity (FGFR1 (Homo sapiens, UniProt P11362); functional response, PathHunter; U2OS; concentration not given, counter-screen): inactive
COc1cc(CC(=O)NCC(NC(=O)C(CCCNC(=O)c2cccc(I)c2)NC(=O)C(Cc2ccc(C(F)(F)P(=O)(O)O)cc2)NC(=O)c2ccc(C)c(Br)c2)C(N)=O)ccc1O (stereo not drawn)  inhibition (PTPN13 (Homo sapiens, UniProt Q12923); enzyme activity; 10 µM): no inhibition
N=C(N)NCCC[C@H](NC(=O)[C@H](CCCNC(=N)N)NC(=O)[C@H](CCCCN)NC(=O)[C@H](CO)NC(=O)[C@H](Cc1ccccc1)NC(=O)[C@H](Cc1ccccc1)NC(=O)[C@H](CS)NC(=O)CN)C(=O)O  Km (NMT1; substrate): 13.6 µM
O=C(ON1C(=O)C2CN(C(=O)N3CCOCC3)CCN2C1=O)N1CCC(CCc2ccc(Cl)cc2)CC1 (stereo not drawn)  dose for near-complete inhibition (Acyl-protein thioesterase 1 (Lypla1, Mus musculus, UniProt P97823); enzyme activity, inhibitor, gel-based ABPP; C57BL/6 mice, liver and kidney; intraperitoneal, 4 h, not brain): 5 mg/kg
NC[C@@H]1O[C@H](C23CC4CC(CC(C4)C2)C3)Cc2c1ccc(O)c2O  Emax (DRD5 (Homo sapiens, UniProt P21918); agonist; relative to: SKF-81297): 100 ± 6%
CC(C)c1cc2c(N3CCN(C4=NCC(C)(C)S4)CC3)ncnc2s1  binding (Menin (MEN1, Homo sapiens, UniProt O00255, Y323K); thermal shift; concentration not given): no binding
O=C(/C=C/c1nc2ccccc2[nH]1)c1c(-c2ccccc2)c2cc(Cl)ccc2[nH]c1=O  kinase inhibition (CHEK2 (Homo sapiens, UniProt O96017); SelectScreen profiling; concentration not given, panel of 100 kinases): inhibited
C[C@H]1C[C@@H]2[C@H]3CCC4=CC(=O)C=C[C@@]4(C)[C@]3(Cl)[C@@H](Cl)C[C@]2(C)[C@]1(O)C(=O)COP(=O)(O)O  maximal activity (NR3C1; nuclear translocation, agonist, enzyme fragment complementation): 200%
Cc1cccc(NC(=O)c2nn(Cc3cnc[nH]3)c3c2CN(C(=O)c2ccc[nH]2)CC3)c1  granulocytic/monocytic cell fraction (IDH1 R132G AML cells; CD45/SSC flow cytometry; 3 µM, 7 days; relative to: DMSO): 1.3 ± 0.1 fold
CCc1c(-c2ccccc2)nn2c(=O)cc(-c3cccc(C(=O)O)c3)[nH]c12  plasma level (mouse; 10 mg/kg, 10 h): not detected
Cc1c(O)cc2c(c1C)O[C@](C)(CCCC(C)C)CC2  membrane-associated PDK1 (LNCaP; immunocytochemistry; 35 µM, 6 h): > 90%
CC[C@@H]1C(=O)N(C)c2cnc(Nc3ccc(C(=O)NC4CCN(C)CC4)cc3OC)nc2N1C1CCCC1  delta Tm (KAT2A (Homo sapiens, UniProt Q92830); 10 µM): -0.31 ± 0.53 °C
CC[C@H](C)[C@H](NC(=O)[C@H](CS)NC(=O)CN)C(=O)N[C@@H](CCCCN)C(=O)N[C@@H](CO)C(=O)N[C@@H](CCCCN)C(=O)N[C@@H](CCC(=O)O)C(=O)N[C@@H](CC(N)=O)C(=O)O  Km (NMT1; substrate): 14.4 µM
Fc1cc(-c2ccc3c(n2)[nH]c2ccncc23)ccn1 [isotope labelled]  specific binding (Microtubule-associated protein tau, paired helical filaments (MAPT, Homo sapiens, UniProt P10636); radioligand binding; PHF tau brain homogenate; 52.06 nM; higher = more binding): 18.6 a.u.
N=C(N)NCCC[C@H](NC(=O)[C@H](CS)NC(=O)CN)C(=O)N[C@@H](CCC(N)=O)C(=O)N[C@@H](CO)C(=O)N[C@@H](CO)C(=O)N[C@@H](CCC(=O)O)C(=O)N[C@@H](CCC(=O)O)C(=O)O  Km (NMT1; substrate): 15.7 µM
C[C@@]12CCC(=O)C=C1CC[C@H]1C2[C@@H](O)C[C@]2(C)[C@@H]1CC[C@@]2(O)C(=O)COC(=O)C1CCCC1 (stereo partly drawn)  Hill slope (NR3C1; nuclear translocation, agonist, enzyme fragment complementation): 0.54
CCCCCCCCCCCCCC(=O)O[C@H](CCCCCCCCCCC)CC(=O)O[C@@H]1[C@@H](NC(=O)C[C@@H](CCCCCCCCCCC)OC(=O)CCCCCCCCCCC)[C@H](OC[C@H]2O[C@H](OP(=O)(O)O)[C@H](NC(=O)C[C@H](O)CCCCCCCCCCC)[C@@H](OC(=O)C[C@H](O)CCCCCCCCCCC)[C@@H]2O)O[C@H](CO)[C@H]1OP(=O)(O)O  binding affinity decrease (msbA (Escherichia coli, UniProt P60752); fluorescence quenching; concentration not given, 10 °C, daunorubicin site occupied first; relative to: daunorubicin site empty over occupied): ~7 fold
Fc1cccc(-n2cnc3c(NCc4nc5cc(Cl)ccc5[nH]4)nc(N4CCNCC4)nc32)c1  remaining binding (SGK1 (Homo sapiens, UniProt O00141); KINOMEscan competition binding; 10 µM; relative to: control): 1%
Cc1ccc([C@H](CC(=O)O)NC(=O)Nc2c(O)c(C)cn(Cc3ccccc3Cl)c2=O)cc1  surface integrin alpha-6 level (B-ALL cells; flow cytometry; 1 to 25 µM, 24 to 96 h): no effect
Cc1cccc(C2Nc3cccc4cccc(c34)N2)c1  inhibition of pericellular proteolysis (Serine protease hepsin (Hpn, Mus musculus, UniProt O35453); hepsin activity; 50 µM; relative to: vehicle): ~60%

Repeated from above:
CCCCCCCCCCCCCC(=O)O[C@H](CCCCCCCCCCC)CC(=O)O[C@@H]1[C@@H](NC(=O)C[C@@H](CCCCCCCCCCC)OC(=O)CCCCCCCCCCC)[C@H](OC[C@H]2O[C@H](OP(=O)(O)O)[C@H](NC(=O)C[C@H](O)CCCCCCCCCCC)[C@@H](OC(=O)C[C@H](O)CCCCCCCCCCC)[C@@H]2O)O[C@H](CO)[C@H]1OP(=O)(O)O  binding affinity decrease (msbA (Escherichia coli, UniProt P60752); fluorescence quenching; concentration not given, 10 °C, daunorubicin site occupied first; relative to: daunorubicin site empty over occupied): ~7 fold
Fc1cccc(-n2cnc3c(NCc4nc5cc(Cl)ccc5[nH]4)nc(N4CCNCC4)nc32)c1  remaining binding (SGK1 (Homo sapiens, UniProt O00141); KINOMEscan competition binding; 10 µM; relative to: control): 1%
Cc1ccc([C@H](CC(=O)O)NC(=O)Nc2c(O)c(C)cn(Cc3ccccc3Cl)c2=O)cc1  surface integrin alpha-6 level (B-ALL cells; flow cytometry; 1 to 25 µM, 24 to 96 h): no effect
Cc1cccc(C2Nc3cccc4cccc(c34)N2)c1  inhibition of pericellular proteolysis (Serine protease hepsin (Hpn, Mus musculus, UniProt O35453); hepsin activity; 50 µM; relative to: vehicle): ~60%
